Experimental data of several laboratories.
Protocols differ between the studies behind these lines. ± gives the spread as reported.
NR3C1: Glucocorticoid receptor (NR3C1, Homo sapiens, UniProt P04150)

Amino acid sequences for entries named in this document (tags omitted).
UniProt P04150, whole entry: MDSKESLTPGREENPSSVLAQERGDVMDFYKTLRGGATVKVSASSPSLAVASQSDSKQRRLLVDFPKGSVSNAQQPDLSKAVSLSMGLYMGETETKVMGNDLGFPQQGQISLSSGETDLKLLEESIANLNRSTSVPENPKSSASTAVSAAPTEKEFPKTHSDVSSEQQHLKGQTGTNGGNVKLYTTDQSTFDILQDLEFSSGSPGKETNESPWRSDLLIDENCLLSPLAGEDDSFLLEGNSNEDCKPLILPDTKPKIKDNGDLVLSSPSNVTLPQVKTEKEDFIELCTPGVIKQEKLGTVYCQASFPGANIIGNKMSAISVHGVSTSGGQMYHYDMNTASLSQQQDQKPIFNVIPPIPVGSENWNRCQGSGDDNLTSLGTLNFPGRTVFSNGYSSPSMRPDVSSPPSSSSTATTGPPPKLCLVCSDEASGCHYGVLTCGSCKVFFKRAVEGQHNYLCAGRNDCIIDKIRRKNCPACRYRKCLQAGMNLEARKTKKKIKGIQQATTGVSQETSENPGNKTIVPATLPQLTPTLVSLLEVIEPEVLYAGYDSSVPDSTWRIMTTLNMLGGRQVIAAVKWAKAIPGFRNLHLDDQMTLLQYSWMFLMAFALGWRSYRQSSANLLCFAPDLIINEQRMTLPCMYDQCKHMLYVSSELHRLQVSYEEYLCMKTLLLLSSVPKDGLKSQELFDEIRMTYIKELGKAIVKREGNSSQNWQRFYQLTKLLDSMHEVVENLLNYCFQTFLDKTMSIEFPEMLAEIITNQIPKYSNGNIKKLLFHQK
UniProt P10636, whole entry, looked up: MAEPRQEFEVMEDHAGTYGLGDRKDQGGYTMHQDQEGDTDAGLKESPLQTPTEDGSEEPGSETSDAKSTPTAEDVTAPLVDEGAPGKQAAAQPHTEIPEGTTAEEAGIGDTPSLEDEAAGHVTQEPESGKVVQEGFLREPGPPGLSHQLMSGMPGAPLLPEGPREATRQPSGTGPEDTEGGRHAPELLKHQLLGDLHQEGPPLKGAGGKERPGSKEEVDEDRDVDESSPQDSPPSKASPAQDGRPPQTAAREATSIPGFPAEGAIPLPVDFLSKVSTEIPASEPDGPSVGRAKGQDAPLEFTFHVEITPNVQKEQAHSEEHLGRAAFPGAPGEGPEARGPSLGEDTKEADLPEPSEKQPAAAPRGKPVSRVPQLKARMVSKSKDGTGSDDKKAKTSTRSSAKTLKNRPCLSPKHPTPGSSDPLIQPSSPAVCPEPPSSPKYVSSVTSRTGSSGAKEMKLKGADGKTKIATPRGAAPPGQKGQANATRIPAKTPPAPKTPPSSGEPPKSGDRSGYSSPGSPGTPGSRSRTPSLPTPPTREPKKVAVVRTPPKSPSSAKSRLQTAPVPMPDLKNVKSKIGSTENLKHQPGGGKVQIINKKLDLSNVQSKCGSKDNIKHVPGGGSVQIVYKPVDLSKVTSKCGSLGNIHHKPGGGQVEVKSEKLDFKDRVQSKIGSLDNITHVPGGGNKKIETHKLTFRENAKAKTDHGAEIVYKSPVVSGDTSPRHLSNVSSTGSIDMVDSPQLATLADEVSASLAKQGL
UniProt Q8IZX4, whole entry, looked up: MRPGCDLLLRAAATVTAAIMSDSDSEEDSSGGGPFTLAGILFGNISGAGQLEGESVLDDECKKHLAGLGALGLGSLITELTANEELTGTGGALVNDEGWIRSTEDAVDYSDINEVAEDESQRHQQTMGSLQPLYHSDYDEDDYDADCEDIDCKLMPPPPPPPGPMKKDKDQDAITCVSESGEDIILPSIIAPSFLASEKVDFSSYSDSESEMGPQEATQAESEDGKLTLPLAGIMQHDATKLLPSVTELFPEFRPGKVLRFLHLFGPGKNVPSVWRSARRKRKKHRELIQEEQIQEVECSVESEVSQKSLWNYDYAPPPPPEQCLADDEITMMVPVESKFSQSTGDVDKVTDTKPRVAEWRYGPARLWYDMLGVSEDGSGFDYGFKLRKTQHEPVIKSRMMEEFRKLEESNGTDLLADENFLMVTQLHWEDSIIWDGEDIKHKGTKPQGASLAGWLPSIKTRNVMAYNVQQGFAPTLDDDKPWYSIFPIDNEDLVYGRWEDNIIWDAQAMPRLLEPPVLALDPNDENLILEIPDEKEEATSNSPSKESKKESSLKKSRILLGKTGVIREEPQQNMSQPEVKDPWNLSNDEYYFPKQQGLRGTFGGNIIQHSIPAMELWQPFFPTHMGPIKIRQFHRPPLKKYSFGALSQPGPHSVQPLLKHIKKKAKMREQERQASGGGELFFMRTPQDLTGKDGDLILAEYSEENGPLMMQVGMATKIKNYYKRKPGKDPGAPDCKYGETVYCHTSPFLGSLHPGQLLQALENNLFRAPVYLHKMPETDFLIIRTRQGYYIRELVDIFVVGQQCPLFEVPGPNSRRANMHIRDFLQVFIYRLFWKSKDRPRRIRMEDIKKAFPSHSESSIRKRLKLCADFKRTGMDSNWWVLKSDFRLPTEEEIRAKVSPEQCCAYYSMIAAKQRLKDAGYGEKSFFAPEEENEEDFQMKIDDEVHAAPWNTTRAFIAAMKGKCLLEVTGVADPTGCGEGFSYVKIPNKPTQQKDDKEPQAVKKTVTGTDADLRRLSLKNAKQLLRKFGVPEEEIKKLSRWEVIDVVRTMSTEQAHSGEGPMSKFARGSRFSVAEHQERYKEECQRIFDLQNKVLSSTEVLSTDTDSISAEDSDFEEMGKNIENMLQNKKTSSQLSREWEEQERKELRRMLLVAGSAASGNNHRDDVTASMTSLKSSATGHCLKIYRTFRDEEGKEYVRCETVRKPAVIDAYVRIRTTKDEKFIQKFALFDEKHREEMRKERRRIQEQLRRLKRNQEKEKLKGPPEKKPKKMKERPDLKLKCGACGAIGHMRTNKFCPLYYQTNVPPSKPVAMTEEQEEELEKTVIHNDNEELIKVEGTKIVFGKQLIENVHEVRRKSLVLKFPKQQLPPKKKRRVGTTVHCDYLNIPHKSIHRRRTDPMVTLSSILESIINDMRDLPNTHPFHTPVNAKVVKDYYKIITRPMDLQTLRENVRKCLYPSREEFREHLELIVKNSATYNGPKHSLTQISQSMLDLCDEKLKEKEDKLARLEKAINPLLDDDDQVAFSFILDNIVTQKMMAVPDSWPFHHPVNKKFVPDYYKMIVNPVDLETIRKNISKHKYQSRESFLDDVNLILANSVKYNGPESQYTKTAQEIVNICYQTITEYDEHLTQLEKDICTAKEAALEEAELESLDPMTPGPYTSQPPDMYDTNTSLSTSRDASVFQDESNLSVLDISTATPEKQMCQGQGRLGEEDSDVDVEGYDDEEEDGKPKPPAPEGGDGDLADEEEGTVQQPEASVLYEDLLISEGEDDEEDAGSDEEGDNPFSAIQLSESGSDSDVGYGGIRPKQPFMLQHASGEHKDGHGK

With `C[C@@]12CC[C@H]3[C@@H](CC[C@H]4C[C@@H](O)CC[C@]43C)[C@H]1CC[C@@H]2C(=O)C[C@H](O)C(F)(F)F` the EC50 was greater than 9000 nM (NR3C1; nuclear translocation, agonist, enzyme fragment complementation).
For `Fc1cc(-c2ccc3c(n2)[nH]c2ccncc23)ccn1` [isotope labelled], the specific binding was 8.52 a.u. (Microtubule-associated protein tau, paired helical filaments (MAPT, Homo sapiens, UniProt P10636); radioligand binding; PHF tau brain homogenate; 9.68 nM; higher = more binding).
The EC50 of `CCCC1C/C=C/CCCCC(=NOCC(=O)N2CCCCC2)Cc2cc(O)cc(O)c2C(=O)O1` (stereo not shown) is reported as greater than 10000 nM (SK-BR-3; Her-2 depletion, item: Her-2; overnight).
For `Cc1ccc([C@H](CC(=O)O)NC(=O)Nc2c(O)c(C)cn(Cc3ccccc3Cl)c2=O)cc1`, tube formation read “decreased” (HUVEC; nodes, segments and meshes; 5 and 25 µM).
For `Cc1[nH]c2ccccc2c1CCNC(=O)c1ccc(-c2nn[nH]n2)cc1`, mRNA level read “no effect” (BV2 cells expressing human EP2; antagonist, qRT-PCR, item: human EP2; 0.3 to 1 µM, 1 h pretreatment, added: LPS 100 ng/mL 2 h, ONO-AE1-259-01 30 nM; reference: vehicle).
With `CN1CCN(c2nc(NCc3nc4cc(Cl)ccc4[nH]3)c3ncn(-c4ccoc4)c3n2)CC1` the EC50 was 3 nM (A-375; cell viability, MTT).
The IC50 of `c1ccc2[nH]c3c(N=NC4=NCCN4)c4ccccc4c-3nc2c1` is reported as 300 ± 180 nM (MDA-MB-468; cytotoxicity, MTT; 96 h).
`CCN1CCN(Cc2ccc(NC(=O)c3ccc(C)c(Oc4ncnc5cc(OC)c(OC)cc45)c3)cc2C(F)(F)F)CC1`: viability “no effect” (THP-1; CellTiter-Blue; up to 1 µM, 72 h).
With `CCN1CCN(Cc2ccc(Nc3ncc4c(n3)N(C)c3c(C)cccc3C(=O)N4C)cc2C(F)(F)F)CC1` the EC50 was 911 nM (HT-29; cell growth, CellTiter-Glo; 96 h).
For `Cc1c(O)cc2c(c1C)O[C@](C)(CCCC(C)C)CC2`, the IC50 was 7000 to 10000 nM (LNCaP and PC-3; cell viability, MTT; 24 h, serum-free medium).
`CC(C)c1cc2c(N3CCN(C4=NCC(C)(C)S4)CC3)ncnc2s1` — result for CD11b expression: “increased” (MLL-AF9 transformed mouse BMC; flow cytometry; 7 d; reference: DMSO).
Under H3K27me3 level, `Cc1cc(C)c(CNC(=O)c2cc(-c3ccc(N4CCN(CCNC(=O)CC56CC7CC(CC(C7)C5)C6)CC4)nc3)cc3c2cnn3C(C)C)c(=O)[nH]1` is recorded as “decreased” (MDA-MB-468; western blot; concentration not given).
`O=C1OCCC=CCCC=CC(=NOCC(=O)N(Cc2ccccc2)Cc2ccccc2)Cc2cc(O)cc(O)c21` gave an EC50 of greater than 10000 nM (SK-BR-3; Her-2 depletion, item: Her-2; overnight).
The EC50 of `CN1C(=O)c2ccccc2N(C)c2nc(Nc3ccc(N4CCC(O)CC4)cc3)ncc21` is reported as 55 nM (HT-29; cell growth, CellTiter-Glo; 96 h).
Under protein level, `NC(=O)c1ccc(-n2cccc2Cc2ccccc2O)cc1N[C@H]1CC[C@H](O)CC1` is recorded as “decreased” (HEK cells expressing I477N myocilin; Western blot, item: I477N myocilin; 30 µM, 24 h).
`COc1cc(N2CCN(C)CC2)ccc1Nc1ncc2c(n1)N(C)c1ccccc1C(=O)N2` — result for cell growth: “inhibited” (A549; cell count; 10 µM, 7 d).
The EC50 of `CCCN(CCC)C(=O)CON=C1C=CCCC=CCCOC(=O)c2c(O)cc(O)cc2C1` is reported as no more than 1000 nM (SK-BR-3; Her-2 depletion, item: Her-2; overnight).
`O=c1/c(=C/c2ccc(-c3cc(Cl)cc(Cl)c3)o2)sc2nc3cc(Br)cnc3n12` — result for phospho-p38 level: “increased” (Jurkat TAg T cells; TCR signalling, immunoblot; 40 µM, 45 min preincubation, added: OKT3 5 min; reference: DMSO).
`C[C@]12CC[C@@H]3[C@H](CCC4=CC(=O)CC[C@]43C)[C@]1(O)CC[C@@]2(O)C(=O)CO` has an EC50 of greater than 9000 nM (NR3C1; nuclear translocation, agonist, enzyme fragment complementation).
For `CN(C)S(=O)(=O)c1cccc(-n2sc3ccccc3c2=O)c1`, the mineralization was 53.8 ± 4.1% (mouse vascular smooth muscle cells; Alizarin Red staining; 30 µM, 21 days, added: beta-glycerophosphate; reference: vehicle).
`CCCCCCCCCCCCCC=C[C@@H](O)[C@H](CO[C@@H]1O[C@H](CO)[C@@H](O[C@@H]2O[C@H](CO)[C@H](O)[C@H](O[C@]3(C(=O)O)C[C@H](O)[C@@H](NC(C)=O)[C@H]([C@H](O)[C@@H](CO)O[C@]4(C(=O)O)C[C@H](O)[C@@H](NC(C)=O)[C@H]([C@H](O)[C@H](O)CO)O4)O3)[C@H]2O)[C@H](O)[C@H]1O)NC(=O)CCCCCCCCCCCCCCCCC` — result for cytokine production: “decreased” (primary human NKT cells; APCs pretreated with compound, added: α-GalCer).
`O=C1C=C(NCCc2cc(Br)c(O)c(Br)c2)C(=O)c2ncccc21`: metastatic growth “inhibited” (K7M2 GFP cells; mouse lung organ culture; 10 µM).
`C[C@]12CCC(=O)C=C1CCC1C2CC[C@]2(C)C(n3cnc4ccccc43)=CCC12` (stereo partly shown) has an IC50 of 2200 nM (LNCaP; cell proliferation, XTT; 7 days, without DHT).
For `CCN1CCN(Cc2ccc(Nc3ncc4c(n3)N(C)c3c(F)cccc3C(=O)N4C)cc2C(F)(F)F)CC1`, the EC50 was 1580 nM (HT-29; cell growth, CellTiter-Glo; 96 h).
Under phospho-ERK1/2 level, `O=c1/c(=C/c2ccc(-c3ccccc3[N+](=O)[O-])o2)sc2nc3cc(Br)cnc3n12` is recorded as “increased” (Jurkat TAg T cells; TCR signalling, immunoblot; 40 µM, 45 min preincubation, added: OKT3 5 min; reference: DMSO).
`O=C1OC/C=C/CCCCC(=NOCC(=O)N2CCCCC2)Cc2cc(O)cc(O)c21` has an EC50 of greater than 10000 nM (SK-BR-3; Her-2 depletion, item: Her-2; overnight).
`O=C(Nc1cccnn1)N1CC(Oc2ccc(-c3ccccc3F)cn2)C1`: “Cmax fold per doubling” 1.7 fold (healthy humans; oral, dose not given, day 7, once daily dosing; reference: exposure at half dose).
`CC1C=CC(C)N1C(=O)CON=C1C=CCCC=CCCOC(=O)c2c(O)cc(O)cc2C1` (stereo not shown) has an EC50 of no more than 1000 nM (SK-BR-3; Her-2 depletion, item: Her-2; overnight).
`COc1cc(CC(=O)NCC(NC(=O)C(CCCNC(=O)c2cccc(I)c2)NC(=O)C(Cc2ccc(C(F)(F)P(=O)(O)O)cc2)NC(=O)c2ccc(C)c(Br)c2)C(N)=O)ccc1O` (stereo not shown) — result for “IR Tyr1162/1163 phosphorylation increase”: 50% (primary mouse hepatocytes; Western blot; 50 nM, 1 h, added: insulin 5 nM, 5 min; reference: DMSO).
For `O=C1CCC(N2C(=O)c3cccc(NCCOCCOCCOCCN4CCN(c5ccc(-c6ccc7c(c6)C(=O)N(C(C(=O)Nc6nccs6)c6ccccc6)C7)cn5)CC4)c3C2=O)C(=O)N1` (stereo not shown), the EC50 was 41 nM (Ba/F3 EGFR L858R/T790M/C797S; cell proliferation).
`Nc1c(C(=O)Nc2c(F)cc(F)cc2Br)sc2nc3c(cc12)CCC3` — result for “total cellular copper increase”: roughly 45% (H1299; ICP-MS; 10 µM, 12 h).
`Cc1cccc(NC(=O)c2nn(Cc3cnc[nH]3)c3c2CN(C(=O)c2ccc[nH]2)CC3)c1`: “leukemic blast fraction” 1 ± 0.04 fold (IDH1 R132G AML cells; CD45/SSC flow cytometry; 3 µM, 7 days; reference: DMSO).
`CC[C@@H]1C(=O)N(C)c2cnc(Nc3ccc(C(=O)NC4CCN(C)CC4)cc3OC)nc2N1C1CCCC1` gave a delta Tm of -0.48 ± 0.1 °C (TAF1L (Homo sapiens, UniProt Q8IZX4); 10 µM).
For `C[C@H]1CCCN1Cc1cc2cnc(NC(=O)c3ccc4c(cnn4C)c3)cc2[nH]1`, mRNA level read “decreased” (primary AML cells, MLL1-rearranged or NPM1-mutant; RT-qPCR, item: MYC, HOXA9, MYB; 1 µM).

Repeated from above:
Under H3K27me3 level, `Cc1cc(C)c(CNC(=O)c2cc(-c3ccc(N4CCN(CCNC(=O)CC56CC7CC(CC(C7)C5)C6)CC4)nc3)cc3c2cnn3C(C)C)c(=O)[nH]1` is recorded as “decreased” (MDA-MB-468; western blot; concentration not given).
`O=C1OCCC=CCCC=CC(=NOCC(=O)N(Cc2ccccc2)Cc2ccccc2)Cc2cc(O)cc(O)c21` gave an EC50 of greater than 10000 nM (SK-BR-3; Her-2 depletion, item: Her-2; overnight).
The EC50 of `CN1C(=O)c2ccccc2N(C)c2nc(Nc3ccc(N4CCC(O)CC4)cc3)ncc21` is reported as 55 nM (HT-29; cell growth, CellTiter-Glo; 96 h).
